Assay results of several laboratories.
Lines come from different studies, so protocols differ.
U2AF2: U2AF2 148-342 (Homo sapiens, UniProt P26368)
UniProt P26368, sequence (whole entry, looked up): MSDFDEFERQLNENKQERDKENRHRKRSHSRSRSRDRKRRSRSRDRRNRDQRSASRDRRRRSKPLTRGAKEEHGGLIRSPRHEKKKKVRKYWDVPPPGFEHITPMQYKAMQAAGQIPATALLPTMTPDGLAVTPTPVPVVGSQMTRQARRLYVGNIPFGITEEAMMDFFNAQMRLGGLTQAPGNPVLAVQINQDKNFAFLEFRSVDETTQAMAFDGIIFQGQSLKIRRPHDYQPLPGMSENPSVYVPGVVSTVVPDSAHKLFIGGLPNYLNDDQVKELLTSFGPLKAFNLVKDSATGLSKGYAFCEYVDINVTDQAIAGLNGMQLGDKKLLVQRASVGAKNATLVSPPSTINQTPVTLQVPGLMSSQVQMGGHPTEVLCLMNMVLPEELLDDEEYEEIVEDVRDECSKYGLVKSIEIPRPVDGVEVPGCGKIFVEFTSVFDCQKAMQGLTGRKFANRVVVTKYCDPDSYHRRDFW
B1: RBCK1 195-442 (Homo sapiens, UniProt Q9BYM8-1); chain VGWQCPGCTFINKPTRPGCEMCCRARPEAYQVPASYQPDEEERARLAGEEEALRQYQQRKQQQQEGNYLQHVQLDQRSLVLNTEPAECPVCYSVLAPGEAVVLRECLHTFCRECLQGTIRNSQEAEVSCPFIDNTYSCSGKLLEREIKALLTPEDYQRFLDLGISIAENRSAFSYHCKTPDCKGWCFFEDDVNEFTCPVCFHVNCLLCKAIHEQMNCKEYQEDLALRAQNDVAARQTTEMLKVMLQQG
B2: POL32 1-103 (Saccharomyces cerevisiae, UniProt P47110); sequence looked up; chain MDQKASYFINEKLFTEVKPVLFTDLIHHLKIGPSMAKKLMFDYYKQTTNAKYNCVVICCYKDQTIKIIHDLSNIPQQDSIIDCFIYAFNPMDSFIPYYDIIDQ
B3: SF3B1 454-1304 R625H (Homo sapiens, UniProt O75533); chain KSVNDQPSGNLPFLKPDDIQYFDKLLVDVDESTLSPEEQKERKIMKLLLKIKNGTPPMRKAALRQITDKAREFGAGPLFNQILPLLMSPTLEDQERHLLVKVIDRILYKLDDLVRPYVHKILVVIEPLLIDEDYYARVEGREIISNLAKAAGLATMISTMRPDIDNMDEYVHNTTARAFAVVASALGIPSLLPFLKAVCKSKKSWQARHTGIKIVQQIAILMGCAILPHLRSLVEIIEHGLVDEQQKVRTISALAIAALAEAATPYGIESFDSVLKPLWKGIRQHRGKGLAAFLKAIGYLIPLMDAEYANYYTREVMLILIREFQSPDEEMKKIVLKVVKQCCGTDGVEANYIKTEILPPFFKHFWQHRMALDRRNYRQLVDTTVELANKVGAAEIISRIVDDLKDEAEQYRKMVMETIEKIMGNLGAADIDHKLEEQLIDGILYAFQEQTTEDSVMLNGFGTVVNALGKRVKPYLPQICGTVLWRLNNKSAKVRQQAADLISRTAVVMKTCQEEKLMGHLGVVLYEYLGEEYPEVLGSILGALKAIVNVIGMHKMTPPIKDLLPRLTPILKNRHEKVQENCIDLVGRIADRGAEYVSAREWMRICFELLELLKAHKKAIRRATVNTFGYIAKAIGPHDVLATLLNNLKVQERQNRVCTTVAIAIVAETCSPFTVLPALMNEYRVPELNVQNGVLKSLSFLFEYIGEMGKDYIYAVTPLLEDALMDRDLVHRQTASAVVQHMSLGVYGFGCEDSLNHLLNYVWPNVFETSPHVIQAVMGALEGLRVAIGPCRMLQYCLQGLFHPARKVRDVYWKIYNSIYIGSQDALIAHYPRIYNDDKNTYIRYELDYIL
B4: POL30 1-258 E113G (Saccharomyces cerevisiae, UniProt P15873); chain MLEAKFEEASLFKRIIDGFKDCVQLVNFQCKEDGIIAQAVDDSRVLLVSLEIGVEAFQEYRCDHPVTLGMDLTSLSKILRCGNNTDTLTLIADNTPDSIILLFEDTKKDRIAGYSLKLMDIDADFLKIEELQYDSTLSLPSSEFSKIVRDLSQLSDSINIMITKETIKFVADGDIGSGSVIIKPFVDMEHPETSIKLEMDQPVDLTFGAKYLLDIIKGSSLSDRVGIRLSSEAPALFQFDLKSGFLQFFLAPKFNDEE
B5: POL32 1-350 (Saccharomyces cerevisiae, UniProt P47110); chain MDQKASYFINEKLFTEVKPVLFTDLIHHLKIGPSMAKKLMFDYYKQTTNAKYNCVVICCYKDQTIKIIHDLSNIPQQDSIIDCFIYAFNPMDSFIPYYDIIDQKDCLTIKNSYELKVSESSKIIERTKTLEEKSKPLVRPTARSKTTPEETTGRKSKSKDMGLRSTALLAKMKKDRDDKETSRQNELRKRKEENLQKINKQNPEREAQMKELNNLFVEDDLDTEEVNGGSKPNSPKETDSNDKDKNNDDLEDLLETTAEDSLMDVPKIQQTKPSETEHSKEPKSEEEPSSFIDEDGYIVTKRPATSTPPRKPSPVVKRALSSSKKQETPSSNKRLKKQGTLESFFKRKAK
B6: LMNA 389-646 R482W (UniProt P02545); sequence looked up; chain LSPSPTSQRSRGRASSHSSQTQGGGSVTKKRKLESTESRSSFSQHARTSGRVAVEEVDEEGKFVRLRNKSNEDQSMGNWQIKRQNGDDPLLTYWFPPKFTLKAGQVVTIWAAGAGATHSPPTDLVWKAQNTWGCGNSLRTALINSTGEEVAMRKLVRSVTVVEDDEDEDGDDLLHHHHGSHCSSSGDPAEYNLRSRTVLCGTCGQPADKASASGSGAQVGGPISSGSSASSVTVTRSYRSVGGSGGGSFGDNLVTRSY
B7: human dermcidin; sequence looked up; chain YDPEAASAPGSGNPCHEASAAQKENAGEDPGLARQAPKPRKQRSSLLEKGLDGAKKAVGGLGKLGKDAVEDLESVGKGAVHDVKDVLDSVL
B8: RAD9A (Homo sapiens, UniProt Q99638); sequence looked up; chain MKCLVTGGNVKVLGKAVHSLSRIGDELYLEPLEDGLSLRTVNSSRSAYACFLFAPLFFQQYQAATPGQDLLRCKILMKSFLSVFRSLAMLEKTVEKCCISLNGRSSRLVVQLHCKFGVRKTHNLSFQDCESLQAVFDPASCPHMLRAPARVLGEAVLPFSPALAEVTLGIGRGRRVILRSYHEEEADSTAKAMVTEMCLGEEDFQQLQAQEGVAITFCLKEFRGLLSFAESANLNLSIHFDAPGRPAIFTIKDSLLDGHFVLATLSDTDSHSQDLGSPERHQPVPQLQAHSTPHPDDFANDDIDSYMIAMETTIGNEGSRVLPSISLSPGPQPPKSPGPHSEEEDEAEPSTVPGTPPPKKFRSLFFGSILAPVRSPQGPSPVLAEDSEGEG
B9: GABARAP (Homo sapiens, UniProt O95166); chain MKFVYKEEHPFEKRRSEGEKIRKKYPDRVPVIVEKAPKARIGDLDKKKYLVPSDLTVGQFYFLIRKRIHLRAEDALFFFVNNVIPPTSATMGQLYQEHHEEDFFLYIAYSDESVYGL
B10: PAN1 543-850 (Saccharomyces cerevisiae, UniProt P32521); sequence looked up; chain LTGLQPQPTGFLPPSNFSATMPLTAQKTGFGNNEIYTKSNFNNNLIDNSSQDKISTEEKSLFYKIFETFDTQNKGLLDSPTAVEIFRKSGLNRADLEQIWNLCDINNTGQLNKQEFALGMHLVYGKLNGKPIPNVLPSSLIPSSTKLLDNLKNQLKTEPTTTKEKPSFGKIDALSYKNNDDDVLPNYRNRRKVYSAKNEEQSSFSSPSAKSVNHSSSTLQTDDISVDKTVEKKTAKPKYAGFSREINLKNIASLENEIKNISNPENCYDSSIPSDLTSRFDAIIAKLPNLFNEISTIDNEITNAKIQL
B11: human IMPA2; sequence looked up; chain MKPSGEDQAALAAGPWEECFQAAVQLALRAGQIIRKALTEEKRVSTKTSAADLVTETDHLVEDLIISELRERFPSHRFIAEEAAASGAKCVLTHSPTWIIDPIDGTCNFVHRFPTVAVSIGFAVRQELEFGVIYHCTEERLYTGRRGRGAFCNGQRLRVSGETDLSKALVLTEIGPKRDPATLKLFLSNMERLLHAKAHGVRVIGSSTLALCHLASGAADAYYQFGLHCWDLAAATVIIREAGGIVIDTSGGPLDLMACRVVAASTREMAMLIAQALQTINYGRDDEK
B12: RB1CC1 1490-1594 (Homo sapiens, UniProt Q8TDY2); chain SRHSEKIAIRDFQVGDLVLIILDERHDNYVLFTVSPTLYFLHSESLPALDLKPGEGASGASRRPWVLGKVMEKEYCQAKKAQNRFKVPLGTKFYRVKAVSWNKKV
B13: VPH1/STV1 chimera 1-123 (Saccharomyces cerevisiae); sequence looked up; chain MAEKEEAIFRSAEMALVQFYIPQEISRDSAYTLGQLGLVQFRDLNSKVRAFQRTFVNEIRRLDNVERQYRYFYSLLKKHDIKLYEGDTDKYLDGSGELYVPPSGSVIDDYVRNASYLEERLIQLDESLDSLRSKLNDLLEQRQVIFECSKFIEVNPGIAGRATNPEIEQEERDVDEFRMTPDDISETLSDAFSFDDETPQDRGALGNDLTRNQSVEDLSFLEQGYQHRYMITGSIRRTKVDILNRILWRLLRGNLIFQNFPIEEPLLEGKEKVEKDCFIIFTHGETLLKKVKRVIDSLNGKIVSLNTRSSELVDTLNRQIDDLQRILDTTEQTLESELYAIAKELDSWFQDVTREKAIFEILNKSNYDTNRKILIAEGWIPRDELATLQARLGEMIARLGIDVPSIIQVLD
UniProt Q04049, sequence (whole entry, looked up): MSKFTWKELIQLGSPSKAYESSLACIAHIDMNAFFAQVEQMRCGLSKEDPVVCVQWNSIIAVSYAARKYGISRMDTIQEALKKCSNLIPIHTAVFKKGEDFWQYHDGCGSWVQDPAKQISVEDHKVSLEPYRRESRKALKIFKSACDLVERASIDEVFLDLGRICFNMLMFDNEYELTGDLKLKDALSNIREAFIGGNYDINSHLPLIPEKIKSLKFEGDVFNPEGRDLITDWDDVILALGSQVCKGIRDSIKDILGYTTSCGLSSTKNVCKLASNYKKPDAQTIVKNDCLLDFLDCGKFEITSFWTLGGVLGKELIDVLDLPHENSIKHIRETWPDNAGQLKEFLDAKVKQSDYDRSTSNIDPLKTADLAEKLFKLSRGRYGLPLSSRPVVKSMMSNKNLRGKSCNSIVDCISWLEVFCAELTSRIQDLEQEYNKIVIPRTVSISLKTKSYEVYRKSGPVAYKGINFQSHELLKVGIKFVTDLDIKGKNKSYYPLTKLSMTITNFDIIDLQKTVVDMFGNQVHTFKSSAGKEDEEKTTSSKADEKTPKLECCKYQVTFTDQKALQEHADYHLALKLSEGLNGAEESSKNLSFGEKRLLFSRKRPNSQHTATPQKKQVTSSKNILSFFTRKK
UniProt Q13137, sequence (whole entry, looked up): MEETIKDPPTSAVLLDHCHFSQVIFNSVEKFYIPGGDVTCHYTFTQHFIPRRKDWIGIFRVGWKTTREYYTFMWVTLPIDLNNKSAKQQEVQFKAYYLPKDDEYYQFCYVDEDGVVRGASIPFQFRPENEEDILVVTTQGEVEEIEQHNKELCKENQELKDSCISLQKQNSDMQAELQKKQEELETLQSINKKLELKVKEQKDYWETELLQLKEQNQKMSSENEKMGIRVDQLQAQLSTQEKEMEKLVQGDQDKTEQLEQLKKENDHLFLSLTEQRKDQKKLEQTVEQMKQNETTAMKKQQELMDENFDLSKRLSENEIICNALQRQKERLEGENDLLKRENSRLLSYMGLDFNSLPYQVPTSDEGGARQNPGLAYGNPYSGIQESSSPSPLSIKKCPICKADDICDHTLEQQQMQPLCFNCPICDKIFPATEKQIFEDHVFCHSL
UniProt O95210, sequence (whole entry, looked up): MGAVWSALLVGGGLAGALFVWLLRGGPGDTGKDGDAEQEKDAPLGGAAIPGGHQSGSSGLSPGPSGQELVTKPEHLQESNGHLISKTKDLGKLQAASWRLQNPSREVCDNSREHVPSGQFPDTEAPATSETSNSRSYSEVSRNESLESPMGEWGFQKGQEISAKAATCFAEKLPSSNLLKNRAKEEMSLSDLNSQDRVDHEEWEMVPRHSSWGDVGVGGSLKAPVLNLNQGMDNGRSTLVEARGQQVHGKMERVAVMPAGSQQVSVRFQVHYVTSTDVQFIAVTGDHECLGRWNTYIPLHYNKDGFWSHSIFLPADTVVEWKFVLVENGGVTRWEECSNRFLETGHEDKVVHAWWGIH
UniProt Q9Z0F4, sequence (whole entry, looked up): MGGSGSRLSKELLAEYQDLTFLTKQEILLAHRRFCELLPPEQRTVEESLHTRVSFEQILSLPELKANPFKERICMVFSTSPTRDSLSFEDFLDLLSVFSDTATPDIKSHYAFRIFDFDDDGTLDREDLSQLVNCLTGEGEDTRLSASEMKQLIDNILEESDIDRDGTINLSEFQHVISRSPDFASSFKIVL
UniProt Q9BWJ5, sequence (whole entry, looked up): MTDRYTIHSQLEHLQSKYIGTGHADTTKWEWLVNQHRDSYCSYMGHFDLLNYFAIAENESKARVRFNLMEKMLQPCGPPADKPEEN
UniProt P47104, sequence (whole entry, looked up): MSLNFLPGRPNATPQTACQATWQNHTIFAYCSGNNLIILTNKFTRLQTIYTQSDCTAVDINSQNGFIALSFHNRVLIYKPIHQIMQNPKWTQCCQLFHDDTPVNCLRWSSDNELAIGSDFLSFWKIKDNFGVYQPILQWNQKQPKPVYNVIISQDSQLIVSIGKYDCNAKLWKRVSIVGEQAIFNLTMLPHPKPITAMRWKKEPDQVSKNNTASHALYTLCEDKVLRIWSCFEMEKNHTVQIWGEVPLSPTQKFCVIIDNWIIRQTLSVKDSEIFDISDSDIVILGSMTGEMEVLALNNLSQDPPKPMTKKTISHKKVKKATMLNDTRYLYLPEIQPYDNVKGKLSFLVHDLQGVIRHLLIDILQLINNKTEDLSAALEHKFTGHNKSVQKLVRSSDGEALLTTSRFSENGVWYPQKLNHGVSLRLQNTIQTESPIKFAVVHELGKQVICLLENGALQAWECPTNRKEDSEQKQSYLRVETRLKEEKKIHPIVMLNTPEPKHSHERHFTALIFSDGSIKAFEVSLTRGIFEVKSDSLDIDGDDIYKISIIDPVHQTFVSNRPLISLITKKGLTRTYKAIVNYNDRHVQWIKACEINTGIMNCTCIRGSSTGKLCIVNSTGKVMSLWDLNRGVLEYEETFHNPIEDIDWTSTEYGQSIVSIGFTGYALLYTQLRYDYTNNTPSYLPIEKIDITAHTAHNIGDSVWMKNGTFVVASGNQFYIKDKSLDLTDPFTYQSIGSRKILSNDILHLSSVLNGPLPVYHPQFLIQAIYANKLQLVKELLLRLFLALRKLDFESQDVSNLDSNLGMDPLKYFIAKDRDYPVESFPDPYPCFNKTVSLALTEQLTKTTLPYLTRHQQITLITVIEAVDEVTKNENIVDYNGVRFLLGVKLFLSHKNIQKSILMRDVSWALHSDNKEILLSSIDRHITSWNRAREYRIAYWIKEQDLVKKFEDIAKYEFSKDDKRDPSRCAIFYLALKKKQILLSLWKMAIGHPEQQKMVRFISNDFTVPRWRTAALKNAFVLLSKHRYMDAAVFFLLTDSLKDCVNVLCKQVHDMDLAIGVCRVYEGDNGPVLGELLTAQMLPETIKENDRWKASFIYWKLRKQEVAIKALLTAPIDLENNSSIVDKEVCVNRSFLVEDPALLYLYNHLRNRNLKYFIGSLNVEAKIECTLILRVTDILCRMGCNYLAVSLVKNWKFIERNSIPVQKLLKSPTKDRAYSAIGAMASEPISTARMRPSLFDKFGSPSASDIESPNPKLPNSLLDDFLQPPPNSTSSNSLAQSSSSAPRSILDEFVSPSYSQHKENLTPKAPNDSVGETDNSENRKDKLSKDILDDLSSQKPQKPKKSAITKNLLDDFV
UniProt P18858, sequence (whole entry, unmodified, looked up): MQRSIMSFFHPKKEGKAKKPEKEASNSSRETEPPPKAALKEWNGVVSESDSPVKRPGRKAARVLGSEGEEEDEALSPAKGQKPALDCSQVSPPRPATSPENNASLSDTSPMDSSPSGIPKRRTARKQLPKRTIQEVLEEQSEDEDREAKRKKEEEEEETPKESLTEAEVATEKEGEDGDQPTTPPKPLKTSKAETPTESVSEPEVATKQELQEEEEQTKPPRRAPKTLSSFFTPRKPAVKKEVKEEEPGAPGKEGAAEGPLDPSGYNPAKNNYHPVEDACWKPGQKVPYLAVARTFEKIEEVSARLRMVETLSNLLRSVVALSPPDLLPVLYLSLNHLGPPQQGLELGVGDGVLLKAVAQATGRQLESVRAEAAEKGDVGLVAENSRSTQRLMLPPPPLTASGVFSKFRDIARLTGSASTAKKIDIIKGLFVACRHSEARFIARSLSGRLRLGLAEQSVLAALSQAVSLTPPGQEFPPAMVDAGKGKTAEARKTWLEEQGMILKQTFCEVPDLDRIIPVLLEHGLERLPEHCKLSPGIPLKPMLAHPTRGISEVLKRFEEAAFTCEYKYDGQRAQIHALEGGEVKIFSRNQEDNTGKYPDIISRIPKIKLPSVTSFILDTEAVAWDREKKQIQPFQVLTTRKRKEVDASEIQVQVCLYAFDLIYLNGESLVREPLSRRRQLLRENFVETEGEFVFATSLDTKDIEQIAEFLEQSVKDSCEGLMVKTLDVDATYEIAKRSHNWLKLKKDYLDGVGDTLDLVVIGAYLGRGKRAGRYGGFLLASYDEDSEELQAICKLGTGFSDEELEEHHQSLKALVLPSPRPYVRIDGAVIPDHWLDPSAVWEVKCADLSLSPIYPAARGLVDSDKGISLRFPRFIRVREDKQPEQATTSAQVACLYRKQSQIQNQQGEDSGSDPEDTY
UniProt P32270, sequence (whole entry, looked up): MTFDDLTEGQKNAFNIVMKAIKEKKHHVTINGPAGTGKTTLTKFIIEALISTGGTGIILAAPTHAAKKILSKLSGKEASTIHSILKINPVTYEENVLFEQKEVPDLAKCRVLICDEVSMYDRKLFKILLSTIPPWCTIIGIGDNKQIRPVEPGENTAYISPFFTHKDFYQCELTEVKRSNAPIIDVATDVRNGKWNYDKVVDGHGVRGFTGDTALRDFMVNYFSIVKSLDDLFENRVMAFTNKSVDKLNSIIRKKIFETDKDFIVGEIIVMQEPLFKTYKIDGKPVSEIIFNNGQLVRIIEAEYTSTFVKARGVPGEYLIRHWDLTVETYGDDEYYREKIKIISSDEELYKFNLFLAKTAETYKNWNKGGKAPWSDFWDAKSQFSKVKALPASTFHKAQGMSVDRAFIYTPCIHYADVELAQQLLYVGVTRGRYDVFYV

The Kd of `CAUUUUGAU (ssRNA)` is reported as 2.56 µM (U2AF2; sequencing of bound RNA; RNA; motif only).
For `LVLAMWKAGFFKRNR (ITGA2B cytoplasmic tail)`, binding read “binds” (Cib1 (Mus musculus, UniProt Q9Z0F4); ELISA; peptide).
`B1 (RBCK1 195-442)`: binding “binds” (linear tetra-ubiquitin four Ub units (UniProt P0CG48); ITC; 25 °C).
For `gene 32 protein (Enterobacteria phage T4, UniProt P03695)`, binding read “binds” (Dda helicase (bacteriophage T4, UniProt P32270); EMSA).
For `KESALRKQDLILLFDPLFR (TACC3 to 568 550-568 S558D/Y560I/K562L/L567F (Homo sapiens, UniProt Q9Y6A5); sequence looked up)`, binding read “binds” (CLTC 358-574 (Homo sapiens, UniProt Q00610); peptide array; peptide).
`B2 (POL32 1-103)` — result for binding: “binds” (POL31 (Saccharomyces cerevisiae, UniProt P46957); SAXS).
`B3 (SF3B1 454-1304 R625H)`: binding “binds” (SF3B5 (Homo sapiens, UniProt Q9BWJ5); cryo-EM).
`B4 (POL30 1-258 E113G)` — result for binding: “binds” (RAD30 (Saccharomyces cerevisiae, UniProt Q04049); ELISA).
Under binding, `B5 (POL32 1-350)` is recorded as “binds” (REV1 297-985 (Saccharomyces cerevisiae, UniProt P12689); cryo-EM).
For `B6 (LMNA 389-646 R482W)`, binding read “binds” (SREBF1 227-487 (Homo sapiens, UniProt P36956); pull-down).
`HEEWEMVPRHS (STBD1 200-210 (Homo sapiens, UniProt O95210))` — result for binding: “binds” (MAP1LC3A (Homo sapiens, UniProt Q9H492); ITC).
Under “log2 fold change”, `B7 (human dermcidin)` is recorded as 0.42 (CYB5R4 knockout human cells; PP4 interaction, 3xFLAG-PP4C IP-MS; concentration not given; reference: CYB5R4 KO over parental).
`B8 (RAD9A)`: binding “binds” (LIG1 233-919 (Homo sapiens, UniProt P18858); pull-down; 1 hr, 4 °C).
For `B9 (GABARAP)`, binding read “binds” (HEATR3 (Homo sapiens, UniProt Q7Z4Q2); pull-down).
Under binding, `ARTKQTARKST (histone H3 2-12 (UniProt P68431); acetylated K9; sequence looked up)` is recorded as “binds” (YEATS4 19-159 (Homo sapiens, UniProt O95619); X-ray crystallography; peptide).
`B10 (PAN1 543-850)`: binding “binds” (PAN1 689-1190 (Saccharomyces cerevisiae, UniProt P32521); pull-down).
For `B11 (human IMPA2)`, “log2 fold change” read 0.9 (PP6C (human); co-immunoprecipitation, IP-MS; CYB5R4 knockout cells; concentration not given; reference: CYB5R4 knockout over parental).
The Kd of `GUUUCGUAC (ssRNA)` is reported as 4.84 µM (U2AF2; sequencing of bound RNA; RNA; motif only).
Under binding, `B12 (RB1CC1 1490-1594)` is recorded as “binds” (CALCOCO2 10-141 (Homo sapiens, UniProt Q13137); SEC).
Under binding, `B13 (VPH1/STV1 chimera 1-123)` is recorded as “binds” (RAV1 679-898 (Saccharomyces cerevisiae, UniProt P47104); pull-down).

Repeated from above:
`B1 (RBCK1 195-442)`: binding “binds” (linear tetra-ubiquitin four Ub units (UniProt P0CG48); ITC; 25 °C).
For `gene 32 protein (Enterobacteria phage T4, UniProt P03695)`, binding read “binds” (Dda helicase (bacteriophage T4, UniProt P32270); EMSA).
For `KESALRKQDLILLFDPLFR (TACC3 to 568 550-568 S558D/Y560I/K562L/L567F (Homo sapiens, UniProt Q9Y6A5); sequence looked up)`, binding read “binds” (CLTC 358-574 (Homo sapiens, UniProt Q00610); peptide array; peptide).
